Results collected from several papers.
Each line is one published result; not all experiments were run side by side. “And” joins repeats or separate records; there may be more than shown. ± marks the error that the study gave.

SMILES | target | assay | test system | conditions | how to read | measurement | result
C[C@@H]1NC(=O)[C@H](CCCNC(=N)N)NC(=O)[C@H](Cc2ccc3ccccc3c2)NC(=O)[C@H]2CCCCN2C(=O)[C@@H]([C@H](C)O)NC(=O)[C@H](Cc2ccc(F)cc2)NC(=O)[C@@H](Cc2ccc(F)cc2)NC(=O)c2cc3cc(c2)C(=O)NC[C@H](NC(=O)[C@@H](Cc2ccccc2)NC1=O)C(=O)N[C@@H](Cc1ccccc1)C(=O)N[C@@H](Cc1ccc2ccccc2c1)C(=O)N[C@@H](CCCNC(=N)N)C(=O)N[C@@H](CCCNC(=N)N)C(=O)N[C@@H](CCCNC(=N)N)C(=O)N[C@@H](CCCNC(=N)N)C(=O)N[C@H](C(=O)N[C@@H](CCCCN)C(N)=O)CNC3=O | Pin1 human | inhibitor, Western blot | HeLa | 0.2 µM | baseline: untreated | PML protein level | 1.8 fold
Nc1ncc(-c2cc(-c3cnn(CC(F)(F)F)c3)ncc2F)nc1C(=O)NC1CNCC(F)C1 (centres unmarked) | ABL1(F317I)-nonphosphorylated | KINOMEscan competition binding |  | 1 µM | baseline: DMSO control | remaining binding | 100%
Cc1ccc2c(n1)c(-c1cccc(S(C)(=O)=O)c1)c(C)n2C/C(F)=C/CN | AMPA receptor (rat) | radioligand binding |  | 10 µM, rat |  | inhibition | 5%
C[C@@H]1NC(=O)[C@H](CCCNC(=N)N)NC(=O)[C@H](Cc2ccc3ccccc3c2)NC(=O)[C@H]2CCCCN2C(=O)[C@@H]([C@H](C)OP(=O)(O)O)NC(=O)CN(C)C(=O)[C@@H](C)NC(=O)c2cc3cc(c2)C(=O)NC[C@H](NC(=O)[C@@H](C)NC1=O)C(=O)N[C@@H](Cc1ccccc1)C(=O)N[C@@H](Cc1ccc2ccccc2c1)C(=O)N[C@@H](CCCNC(=N)N)C(=O)N[C@@H](CCCNC(=N)N)C(=O)N[C@@H](CCCNC(=N)N)C(=O)N[C@@H](CCCNC(=N)N)C(=O)N[C@H](C(=O)N[C@@H](CCCCN)C(N)=O)CNC3=O | Pin1 human | inhibitor, Western blot | HeLa | 5 µM | baseline: untreated | PML protein level | 3.1 fold
COc1ccccc1-c1n[nH]c2nc(NC3CCN(C(=O)Cc4ccc(F)cc4F)CC3)ncc12 | CKS1 LINJ.32.3940 | bead competition pull-down | Leishmania donovani extract | 10 µM | baseline: vehicle | relative captured amount | 0.65
CC[C@@H]1CN2CCc3c([nH]c4cccc(OC)c34)[C@@H]2C[C@@H]1/C(=C\OC)C(=O)OC | rabbit anti-mitragynine polyclonal IgG | antigen binding, competitor, competitive indirect ELISA | 15% methanol | 60 min antibody-standard, 90 min antibody-antigen incubation |  | IC50 | 0.8 µg/mL
CC[C@H](C)[C@@H]1NC(=O)CNC(=O)[C@H](CC(=O)O)NC(=O)[C@H](CC(=O)O)NC(=O)[C@@H]2CSSC[C@@H]3NC(=O)[C@H](Cc4c[nH]cn4)NC(=O)[C@H](CCCNC(=N)N)NC(=O)[C@H](CCCNC(=N)N)NC(=O)[C@@H](NC(=O)[C@H](CO)NC(=O)[C@@H](N)Cc4c[nH]cn4)CSSC[C@H](NC(=O)[C@H](C)NC(=O)[C@H](Cc4c[nH]c5ccccc45)NC(=O)CNC(=O)[C@H](CSSC[C@@H](C(=O)N[C@@H](CCCCN)C(=O)N4CCC[C@H]4C(=O)N[C@@H](CC(C)C)C(=O)N[C@@H](CCCNC(=N)N)C(=O)N[C@H](C(=O)O)C(C)C)NC1=O)NC(=O)[C@H](CCCNC(=N)N)NC(=O)[C@H](CCCNC(=N)N)NC(=O)[C@H](CC(N)=O)NC(=O)[C@H](CCC(=O)O)NC(=O)[C@H](Cc1c[nH]cn1)NC3=O)C(=O)N[C@@H](Cc1ccc(O)cc1)C(=O)N2 | hKv1.2 human |  |  | concentration not given |  | ion current | no effect
CCc1nn(C)c2nc(-c3ccc(C(=O)O)cc3)nc(NCc3ccccc3)c12 | PDE4, guinea pig | inhibitor | heart |  |  | IC50 | 1500 nM
CCCCCCCCCCCC(=O)C(C)C(=O)N1CCC[C@H]1C(=O)NC(C)(C)C(=O)NC(C)(C)C(=O)NC(C)(C)C(=O)N[C@](C)(CC)C(=O)NCCC(=O)N[C@@H](C)C(=O)N[C@](C)(CC)C(=O)N[C@@H](C)C(=O)N[C@@H](CC(C)C)C(=O)N[C@](C)(CC)C(=O)NCCC(=O)N[C@@H](C)C(=O)N[C@](C)(CC)C(=O)NCCC(=O)N[C@@H](C)C(=O)NC(C)(C)C(=O)NC(C)(C)C(=O)NC(C)(C)C(=O)N[C@@H](C)C(=O)N[C@@H](CC(=O)O)C(=O)O (some centres unmarked) | β-1,3-glucan | pull-down, LC-MS |  | 1 h, pH 7.0, 30 °C, added: β-glucan 1 mg/mL | higher = more bound | bound compound (MS peak area) | 1300 a.u. and 1360 a.u.
C=CC(=O)Nc1cc(-c2nn(C3CCC(N4CCN(C(C)=O)CC4)CC3)c3ncnc(N)c23)ccc1Oc1ccccc1 (centres unmarked) | Aurora kinases A, B and C | KiNativ profiling |  | 2 µM |  | inhibition | -1.4%
Cc1cc(C(=O)Nc2nc3cccc(C)c3n2[C@H]2CCCCN(C(=O)/C=C/CN(C)C)C2)ccn1 | Trypanosoma brucei CLK1 wild type | differential scanning fluorimetry |  |  |  | melting temperature | 53.8 °C and 53.9 °C
CC[C@H](C)[C@@H]1NC(=O)[C@H](Cc2ccc(O)cc2)NC(=O)[C@@H](N)CSSC[C@@H](C(=O)N2CCC[C@H]2C(=O)N2CCC[C@H]2C(=O)NCC(N)=O)NC(=O)[C@H](CC(N)=O)NC(=O)[C@H](CCC(N)=O)NC1=O | titi monkey oxytocin receptor | membrane hyperpolarisation, FMP blue membrane potential dye | CHO cells |  |  | IC50 | 0.3 nM
COc1ccccc1-c1n[nH]c2nc(N[C@H]3CC[C@H](NS(=O)(=O)CC(C)C)CC3)ncc12 | Leishmania CRK3 LINJ.36.0600 | bead competition pull-down | Leishmania donovani extract | 10 µM | baseline: vehicle | relative captured amount | 0.42
CSCC[C@H](NC(=O)CNC(=O)[C@H](CCSC)NC(=O)[C@H](CS)NC(=O)[C@@H](N)CS)C(=O)N[C@@H](CS)C(=O)NCC(=O)N[C@@H](CCCCN)C(=O)O | p38 MAPK (mouse) | Western blot | RAW264.7 | concentration not given, 6 h pretreatment, added: LPS for 30 min |  | p-p38/p38 ratio | 0.63 ± 0.11

Some of these lines once more:
SMILES | target | assay | test system | conditions | how to read | measurement | result
Cc1cc(C(=O)Nc2nc3cccc(C)c3n2[C@H]2CCCCN(C(=O)/C=C/CN(C)C)C2)ccn1 | Trypanosoma brucei CLK1 wild type | differential scanning fluorimetry |  |  |  | melting temperature | 53.8 °C and 53.9 °C
